Measurements from different studies.
Numbered parts are unrelated; each lists some results of a single study.
Chain of UniProt Q15375 (whole entry, looked up): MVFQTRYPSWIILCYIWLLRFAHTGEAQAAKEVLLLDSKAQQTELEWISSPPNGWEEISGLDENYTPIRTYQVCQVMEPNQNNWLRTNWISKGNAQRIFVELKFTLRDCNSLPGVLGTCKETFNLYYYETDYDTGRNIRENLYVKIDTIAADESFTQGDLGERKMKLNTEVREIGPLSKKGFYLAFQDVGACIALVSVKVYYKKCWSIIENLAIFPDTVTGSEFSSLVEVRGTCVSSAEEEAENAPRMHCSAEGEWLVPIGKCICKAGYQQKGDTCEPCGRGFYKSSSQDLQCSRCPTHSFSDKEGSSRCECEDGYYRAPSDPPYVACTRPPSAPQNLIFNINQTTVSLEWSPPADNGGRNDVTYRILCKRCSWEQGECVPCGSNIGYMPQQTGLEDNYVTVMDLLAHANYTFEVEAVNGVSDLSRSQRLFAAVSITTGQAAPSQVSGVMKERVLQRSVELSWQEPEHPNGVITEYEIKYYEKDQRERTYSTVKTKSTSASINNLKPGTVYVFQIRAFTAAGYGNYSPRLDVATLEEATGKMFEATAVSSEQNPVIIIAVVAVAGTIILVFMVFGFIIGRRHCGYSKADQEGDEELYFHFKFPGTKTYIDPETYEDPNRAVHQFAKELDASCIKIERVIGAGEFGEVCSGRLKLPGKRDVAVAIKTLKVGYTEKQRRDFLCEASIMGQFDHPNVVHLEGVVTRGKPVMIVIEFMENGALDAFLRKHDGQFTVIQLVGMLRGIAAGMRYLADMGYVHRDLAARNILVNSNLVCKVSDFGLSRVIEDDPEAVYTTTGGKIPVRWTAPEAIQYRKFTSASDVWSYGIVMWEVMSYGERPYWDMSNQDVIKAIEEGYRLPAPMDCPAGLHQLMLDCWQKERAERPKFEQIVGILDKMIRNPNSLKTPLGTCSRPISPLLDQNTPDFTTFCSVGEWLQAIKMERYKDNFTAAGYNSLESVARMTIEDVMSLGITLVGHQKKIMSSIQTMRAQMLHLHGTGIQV
Chain of UniProt O75716 (whole entry, looked up): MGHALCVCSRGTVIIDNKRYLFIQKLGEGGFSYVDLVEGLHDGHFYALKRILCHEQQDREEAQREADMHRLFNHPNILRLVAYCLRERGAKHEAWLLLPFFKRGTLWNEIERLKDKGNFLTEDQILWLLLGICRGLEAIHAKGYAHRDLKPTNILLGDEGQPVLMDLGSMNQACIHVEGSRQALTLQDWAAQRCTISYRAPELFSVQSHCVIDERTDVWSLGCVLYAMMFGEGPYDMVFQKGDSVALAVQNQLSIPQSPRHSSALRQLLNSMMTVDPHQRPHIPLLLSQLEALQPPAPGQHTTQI

Series 1 — read-out: enzyme activity; mode: inhibitor; tested at: 0.5 µM; baseline: control
Target: Myosin light chain kinase 2, skeletal/cardiac muscle (MYLK2, Homo sapiens, UniProt Q9H1R3)
Chain of UniProt Q9H1R3 (whole entry, looked up): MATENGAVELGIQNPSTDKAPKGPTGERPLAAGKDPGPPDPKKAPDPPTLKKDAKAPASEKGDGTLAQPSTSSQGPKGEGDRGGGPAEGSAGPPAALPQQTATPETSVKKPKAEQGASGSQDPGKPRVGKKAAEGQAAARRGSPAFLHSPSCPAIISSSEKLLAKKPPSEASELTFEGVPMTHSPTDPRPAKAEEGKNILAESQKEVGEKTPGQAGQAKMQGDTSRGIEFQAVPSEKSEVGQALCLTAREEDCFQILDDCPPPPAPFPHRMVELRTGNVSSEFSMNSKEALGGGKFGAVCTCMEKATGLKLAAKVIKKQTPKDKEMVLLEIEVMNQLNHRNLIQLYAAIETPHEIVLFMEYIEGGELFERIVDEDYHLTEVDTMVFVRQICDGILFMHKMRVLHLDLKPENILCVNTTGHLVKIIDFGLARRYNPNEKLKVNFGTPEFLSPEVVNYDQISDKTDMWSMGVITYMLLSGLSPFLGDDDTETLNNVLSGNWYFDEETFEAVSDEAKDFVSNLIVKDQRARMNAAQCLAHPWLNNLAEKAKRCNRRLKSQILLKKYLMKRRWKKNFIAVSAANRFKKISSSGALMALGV
Compound | remaining activity [%]
N#Cc1cnc2cnc(NCc3cccnc3)cc2c1Nc1ccc(F)c(Cl)c1 | 96.2
O=C1NC(=O)c2c1c1c3ccccc3[nH]c1c1[nH]c3cc(Br)ccc3c21 | 43.3
O=C1Nc2ccc(Br)cc2/C1=C/c1cc2c([nH]1)CCCC2 | 78.2
c1ccc2c(-c3ccncc3)c[nH]c2c1 | 96.2
c1ccc(-c2n[nH]c3c2oc2ccccc23)cc1 | 66.6
Oc1cccc(-c2nc(N3CCOCC3)c3oc4ncccc4c3n2)c1 | 99
O=C1Nc2ccccc2/C1=C\c1c(Cl)[nH]c2ccccc12 | 94.6
O=C(c1cc2cc(O)ccc2[nH]1)c1cc2cc(O)ccc2[nH]1 | 21.1
COc1ccc(COc2ccc(Cc3cnc(N)nc3N)cc2OC)cc1 | 104
Cc1ccc(S(=O)(=O)/C=C/C#N)cc1 | 105
COc1cccc(-c2cc(=O)c3ccccc3o2)c1N | 101
O=C1Cc2c([nH]c3ccc(Br)cc23)-c2ccccc2N1 | 96.8
CN1CCN(c2ccc3nc(-c4c(N)c5c(F)cccc5[nH]c4=O)[nH]c3c2)CC1 | 5.92
CCCCc1c(-c2ccc(OC)cc2)[nH]c2nccnc12 | 102
CN(C)S(=O)(=O)c1ccc2c(c1)/C(=C/c1cc3c([nH]1)CCCC3)C(=O)N2 | 97.9
COc1ccc2c(c1)c(C1=C(c3c[nH]c4ccccc34)C(=O)NC1=O)cn2CCCN(C)C | 96
Cc1cc(Nc2cc(N3CCN(C)CC3)nc(Sc3ccc(NC(=O)C4CC4)cc3)n2)[nH]n1 | 18.9
CCCNC(=O)Nc1ccc(Oc2ncnc3cc(OC)c(OC)cc23)cc1Cl | 99.9
O=Nc1c(-c2c(O)[nH]c3cc(Br)ccc23)[nH]c2ccccc12 | 17.6
O=c1cc(N2CCOCC2)oc2c(-c3ccccc3)cccc12 | 102

Series 2 — read-out: enzyme activity; mode: inhibitor; tested at: 77 µM; baseline: untreated
Target: DNA polymerase theta, ATPase domain (POLQ, Homo sapiens, UniProt O75417)
Chain of UniProt O75417 (whole entry, unmodified, looked up): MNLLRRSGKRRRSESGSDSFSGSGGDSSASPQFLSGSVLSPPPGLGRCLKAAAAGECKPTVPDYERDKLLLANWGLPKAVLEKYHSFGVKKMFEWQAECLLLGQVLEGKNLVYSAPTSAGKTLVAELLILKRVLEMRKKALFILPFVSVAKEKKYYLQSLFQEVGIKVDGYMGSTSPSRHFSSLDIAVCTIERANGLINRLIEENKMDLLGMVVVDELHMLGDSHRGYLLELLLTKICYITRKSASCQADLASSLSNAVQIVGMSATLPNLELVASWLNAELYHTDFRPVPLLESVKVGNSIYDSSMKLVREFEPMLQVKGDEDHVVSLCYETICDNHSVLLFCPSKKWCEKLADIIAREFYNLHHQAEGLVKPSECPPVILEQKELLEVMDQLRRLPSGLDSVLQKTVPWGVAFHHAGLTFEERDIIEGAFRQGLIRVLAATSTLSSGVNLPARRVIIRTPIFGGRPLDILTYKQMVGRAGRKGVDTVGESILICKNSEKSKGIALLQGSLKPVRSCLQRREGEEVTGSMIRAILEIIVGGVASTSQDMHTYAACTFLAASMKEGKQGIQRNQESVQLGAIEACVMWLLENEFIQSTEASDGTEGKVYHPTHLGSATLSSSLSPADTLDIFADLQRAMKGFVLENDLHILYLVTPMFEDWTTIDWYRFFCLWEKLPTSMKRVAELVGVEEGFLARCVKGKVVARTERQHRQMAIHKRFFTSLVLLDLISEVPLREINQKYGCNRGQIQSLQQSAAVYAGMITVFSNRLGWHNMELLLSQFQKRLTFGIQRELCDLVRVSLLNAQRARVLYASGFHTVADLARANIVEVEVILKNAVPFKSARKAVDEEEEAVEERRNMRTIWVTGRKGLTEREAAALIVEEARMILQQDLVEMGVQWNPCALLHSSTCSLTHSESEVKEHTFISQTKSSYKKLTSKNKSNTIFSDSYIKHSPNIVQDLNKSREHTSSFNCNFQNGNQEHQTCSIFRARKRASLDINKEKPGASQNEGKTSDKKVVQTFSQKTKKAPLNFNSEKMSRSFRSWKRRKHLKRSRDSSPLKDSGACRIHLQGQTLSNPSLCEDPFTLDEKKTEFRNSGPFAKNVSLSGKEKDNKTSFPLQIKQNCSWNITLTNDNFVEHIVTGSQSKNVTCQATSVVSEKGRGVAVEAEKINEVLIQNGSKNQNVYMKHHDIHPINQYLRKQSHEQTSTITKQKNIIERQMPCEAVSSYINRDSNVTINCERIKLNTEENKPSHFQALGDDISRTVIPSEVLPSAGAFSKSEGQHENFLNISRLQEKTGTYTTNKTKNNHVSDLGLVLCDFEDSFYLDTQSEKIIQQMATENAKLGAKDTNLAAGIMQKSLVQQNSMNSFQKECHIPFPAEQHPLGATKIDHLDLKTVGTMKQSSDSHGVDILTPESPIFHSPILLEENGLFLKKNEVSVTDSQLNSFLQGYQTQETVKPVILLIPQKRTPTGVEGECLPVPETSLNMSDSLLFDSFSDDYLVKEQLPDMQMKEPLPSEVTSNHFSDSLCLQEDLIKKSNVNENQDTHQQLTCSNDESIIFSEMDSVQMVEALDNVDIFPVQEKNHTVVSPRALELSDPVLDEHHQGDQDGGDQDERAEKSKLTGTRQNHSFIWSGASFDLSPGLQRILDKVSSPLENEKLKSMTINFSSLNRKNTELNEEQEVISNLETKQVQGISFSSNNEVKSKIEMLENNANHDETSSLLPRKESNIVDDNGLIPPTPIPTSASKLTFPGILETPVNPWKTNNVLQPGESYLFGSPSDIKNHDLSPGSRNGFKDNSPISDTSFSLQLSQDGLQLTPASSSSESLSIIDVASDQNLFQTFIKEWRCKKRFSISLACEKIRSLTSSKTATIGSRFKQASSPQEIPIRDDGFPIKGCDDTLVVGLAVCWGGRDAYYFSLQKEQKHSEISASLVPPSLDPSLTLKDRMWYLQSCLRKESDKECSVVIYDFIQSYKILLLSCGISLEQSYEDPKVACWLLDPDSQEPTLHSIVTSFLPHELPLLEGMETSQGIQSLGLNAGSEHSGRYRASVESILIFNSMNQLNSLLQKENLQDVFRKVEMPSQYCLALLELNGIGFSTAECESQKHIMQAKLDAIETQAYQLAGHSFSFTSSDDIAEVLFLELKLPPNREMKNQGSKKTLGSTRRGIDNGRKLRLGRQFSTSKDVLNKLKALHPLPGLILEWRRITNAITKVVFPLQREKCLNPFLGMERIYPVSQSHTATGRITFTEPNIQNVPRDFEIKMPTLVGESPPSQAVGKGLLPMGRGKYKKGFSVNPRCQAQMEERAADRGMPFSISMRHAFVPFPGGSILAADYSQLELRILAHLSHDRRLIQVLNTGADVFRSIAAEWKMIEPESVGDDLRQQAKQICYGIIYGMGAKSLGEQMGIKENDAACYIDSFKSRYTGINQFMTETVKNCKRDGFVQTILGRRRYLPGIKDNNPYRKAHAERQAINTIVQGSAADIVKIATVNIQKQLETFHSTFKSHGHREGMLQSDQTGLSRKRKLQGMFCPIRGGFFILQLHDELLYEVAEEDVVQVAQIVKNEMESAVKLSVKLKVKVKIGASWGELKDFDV
Compound | remaining activity
CN1C(=O)C(c2c[nH]c3ccccc23)=C(c2c[nH]c3ccccc23)C1=O | 95.8%
COc1ccc(-c2coc3cc(O)ccc3c2=O)cc1 | 90.4%
Cn1c(=O)cc(N2CCC[C@@H](N)C2)n(Cc2ccccc2C#N)c1=O | 99.2%
CN1CCCN(C(=O)c2cccc(-c3ccc(/C=C4/C(=O)Nc5ccc(Cl)cc54)o3)c2)CC1 | 72.7%
C[C@H](NC(=O)Cc1cc(F)cc(F)c1)C(=O)N[C@H](C(=O)OC(C)(C)C)c1ccccc1 | 95.5%
CNc1cc(NS(=O)(=O)c2ccc(N)cc2)nc(NC)n1 | 97.8%
C[C@@H]1CCO[C@H]2Cn3cc(C(=O)NCc4ccc(F)cc4F)c(=O)c(O)c3C(=O)N12 | 99.5%
NCC(O)(CS(=O)(=O)O)c1ccc(Cl)cc1 (stereo not drawn) | 97.2%
FC(F)(F)c1ccccc1-n1ccnc1 | 95.1%
COc1cccc(-c2cc(F)ccc2C2Cc3nc(N)nc(C)c3C(=O)N2)n1 (stereo not drawn) | 95.8%
COc1ccc(S(=O)(=O)N(CCO)c2ccccc2CN(C)C/C=C/c2ccc(Cl)cc2)cc1 | 100%

Series 3 — read-out: cell-free assay; technique: competition with immobilised ligand; tested at: 1 µM
Structure (SMILES): CCS(=O)(=O)c1cc2cc(C[C@](O)(CC(C)(C)c3ccc(F)cc3C(N)=O)C(F)(F)F)[nH]c2cn1
target | remaining binding
Myosin light chain kinase family member 4 (MYLK4, Homo sapiens, UniProt Q86YV6) | 100%
Epidermal growth factor receptor (EGFR, Homo sapiens, UniProt P00533, del747-752/P753S) | 83%
Calcium/calmodulin-dependent protein kinase type IV (CAMK4, Homo sapiens, UniProt Q16566) | 100%
Myosin light chain kinase, smooth muscle (MYLK, Homo sapiens, UniProt Q15746) | 96%
Serine/threonine-protein kinase WNK3 (WNK3, Homo sapiens, UniProt Q9BYP7) | 100%
Serine/threonine-protein kinase 16 (STK16, Homo sapiens, UniProt O75716) | 100%
Serine/threonine-protein kinase PLK2 (PLK2, Homo sapiens, UniProt Q9NYY3) | 91%
Dual specificity testis-specific protein kinase 1 (TESK1, Homo sapiens, UniProt Q15569) | 100%
Serine/threonine-protein kinase D2 (PRKD2, Homo sapiens, UniProt Q9BZL6) | 96%
eIF-2-alpha kinase GCN2, C-terminal kinase domain (EIF2AK4, Homo sapiens, UniProt Q9P2K8, S808G) | 89%
Leucine-rich repeat serine/threonine-protein kinase 2 (LRRK2, Homo sapiens, UniProt Q5S007, G2019S) | 100%
5'-AMP-activated protein kinase catalytic subunit alpha-2 (PRKAA2, Homo sapiens, UniProt P54646) | 97%
Serine/threonine-protein kinase PAK 6 (PAK6, Homo sapiens, UniProt Q9NQU5) | 100%
Receptor tyrosine-protein kinase erbB-3 (ERBB3, Homo sapiens, UniProt P21860) | 100%
Mast/stem cell growth factor receptor Kit (KIT, Homo sapiens, UniProt P10721, D816V) | 100%
Fibroblast growth factor receptor 4 (FGFR4, Homo sapiens, UniProt P22455) | 72%
SRSF protein kinase 3 (SRPK3, Homo sapiens, UniProt Q9UPE1) | 100%
Phosphatidylinositol 4,5-bisphosphate 3-kinase catalytic subunit delta isoform (PIK3CD, Homo sapiens, UniProt O00329) | 89%
Ephrin type-A receptor 7 (EPHA7, Homo sapiens, UniProt Q15375) | 86%
Death-associated protein kinase 1 (DAPK1, Homo sapiens, UniProt P53355) | 92%
Serine/threonine-protein kinase B-raf (BRAF, Homo sapiens, UniProt P15056) | 100%
Rho-associated protein kinase 2 (ROCK2, Homo sapiens, UniProt O75116) | 100%
Serine/threonine-protein kinase NLK (NLK, Homo sapiens, UniProt Q9UBE8) | 100%
Dual specificity mitogen-activated protein kinase kinase 6 (MAP2K6, Homo sapiens, UniProt P52564) | 80%

Series 4 — read-out: enzyme activity; mode: inhibitor; tested at: 10 µM
Target: Calcium/calmodulin-dependent protein kinase type II subunit alpha (CAMK2A, Homo sapiens, UniProt Q9UQM7)
Chain of UniProt Q9UQM7 (whole entry, looked up): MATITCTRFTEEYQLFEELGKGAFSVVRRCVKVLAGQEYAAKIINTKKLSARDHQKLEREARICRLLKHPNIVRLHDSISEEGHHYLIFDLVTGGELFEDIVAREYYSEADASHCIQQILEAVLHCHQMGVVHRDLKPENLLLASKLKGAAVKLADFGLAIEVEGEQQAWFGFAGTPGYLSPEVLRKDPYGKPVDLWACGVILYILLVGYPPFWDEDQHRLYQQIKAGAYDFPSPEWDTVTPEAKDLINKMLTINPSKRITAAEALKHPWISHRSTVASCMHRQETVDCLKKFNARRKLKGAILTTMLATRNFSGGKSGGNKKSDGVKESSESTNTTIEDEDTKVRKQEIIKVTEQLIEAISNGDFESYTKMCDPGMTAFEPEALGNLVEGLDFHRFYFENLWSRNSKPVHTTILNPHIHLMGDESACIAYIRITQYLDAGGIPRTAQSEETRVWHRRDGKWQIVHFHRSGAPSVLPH
Structure (SMILES) | inhibition [%]
CCCCOC(=O)/C=C\C(=O)OCCCC | 8
Nc1ccn([C@H]2C[C@H](O)[C@@H](COP(=O)(O)O)O2)c(=O)n1 | -17
CC(C)CC(N)=O | -22
C[C@@H]1O[C@@H](O[C@H]2[C@H](O[C@H]3CC[C@@]4(C)[C@@H](CC[C@]5(C)[C@@H]4CC=C4[C@@H]6CC(C)(C)CC[C@]6(C(=O)O)CC[C@]45C)[C@]3(C)CO)OC[C@H](O[C@@H]3O[C@H](CO)[C@@H](O)[C@H](O)[C@H]3O)[C@@H]2O)[C@H](O)[C@H](O)[C@H]1O | -41
CN(c1nccc(=O)[nH]1)C1CCN(c2nc3ccccc3n2Cc2ccc(F)cc2)CC1 | -7
CC(=O)c1ccc2c(c1)C=CC(C)(C)O2 | -21
CC(C)C[C@H](N)C(=O)N[C@@H](Cc1ccccc1)C(=O)O | 18
Cc1onc(-c2ccccc2Cl)c1C(=O)N[C@@H]1C(=O)N2[C@@H]1SC(C)(C)[C@@H]2C(=O)O | -6
Cc1ccccc1C=O | -20
CCCCCCCCCCCCCCCCCCCCCCCCCCCC(=O)O | -5
CC(C)=CC(=O)O | 15
CC(=O)O[C@]1(C(C)=O)CC[C@H]2[C@@H]3C[C@H](C)C4=CC(=O)C=C[C@]4(C)[C@@]3(F)[C@@H](O)C[C@@]21C | -7
O=c1c2c3c(ccc2cc2n1CCc1cc4c(cc1-2)OCO4)OCO3 | -20
COc1cc(CCC(C)=O)ccc1O | -15

For quick reference, copied from above (series 1):
Compound | remaining activity [%]
COc1cccc(-c2cc(=O)c3ccccc3o2)c1N | 101
O=C1Cc2c([nH]c3ccc(Br)cc23)-c2ccccc2N1 | 96.8
CN1CCN(c2ccc3nc(-c4c(N)c5c(F)cccc5[nH]c4=O)[nH]c3c2)CC1 | 5.92
CCCCc1c(-c2ccc(OC)cc2)[nH]c2nccnc12 | 102
CN(C)S(=O)(=O)c1ccc2c(c1)/C(=C/c1cc3c([nH]1)CCCC3)C(=O)N2 | 97.9
COc1ccc2c(c1)c(C1=C(c3c[nH]c4ccccc34)C(=O)NC1=O)cn2CCCN(C)C | 96
Cc1cc(Nc2cc(N3CCN(C)CC3)nc(Sc3ccc(NC(=O)C4CC4)cc3)n2)[nH]n1 | 18.9
CCCNC(=O)Nc1ccc(Oc2ncnc3cc(OC)c(OC)cc23)cc1Cl | 99.9
O=Nc1c(-c2c(O)[nH]c3cc(Br)ccc23)[nH]c2ccccc12 | 17.6
O=c1cc(N2CCOCC2)oc2c(-c3ccccc3)cccc12 | 102
